Published values pooled from the literature.
Converted amounts (≈) assume the structure as drawn.
UniProt Q15759, sequence (whole entry, looked up): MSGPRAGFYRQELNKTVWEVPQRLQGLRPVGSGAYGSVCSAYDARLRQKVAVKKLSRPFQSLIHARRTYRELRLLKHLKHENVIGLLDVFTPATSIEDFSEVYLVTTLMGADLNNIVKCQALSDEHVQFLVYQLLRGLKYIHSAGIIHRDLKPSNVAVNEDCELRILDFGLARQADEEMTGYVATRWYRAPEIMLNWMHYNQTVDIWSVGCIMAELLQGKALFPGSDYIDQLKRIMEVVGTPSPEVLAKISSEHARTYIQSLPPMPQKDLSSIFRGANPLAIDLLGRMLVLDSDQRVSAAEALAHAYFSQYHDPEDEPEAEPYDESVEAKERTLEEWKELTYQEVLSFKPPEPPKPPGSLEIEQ

| SMILES | tested on | assay | test system | conditions | measurement | value |
| --- | --- | --- | --- | --- | --- | --- |
| Cc1cccc(CSc2nccc(OCCOc3cc(=O)oc4ccccc34)n2)c1 | Human coronavirus 229E | cytopathic effect | A549 | 1.56 µM | inhibition | 13.4% |
| Nc1ncnc2c([C@@H]3N[C@H](CO)[C@@H](O)[C@H]3O)c[nH]c12 | unidentified influenza virus | viral replication, inhibitor | MDCK | 0.9 µM | inhibition | 0% |
| CC(C)C(=O)OCc1cc2[nH]c(=S)n(Cc3cccnc3)c(=O)c2cc1Cl | Mycobacterium tuberculosis | microbial growth | H37RV | – | MIC90 | 2 µM (≈ 0.808 µg/mL) |
| COc1c(N2C[C@@H]3CCCN[C@@H]3C2)c(F)cc2c(=O)c(C(=O)O)cn(C3CC3)c12 | Pseudomonas aeruginosa | microbial growth | ATCC27853 | – | MIC | 4 µM |
| COc1ccc(-c2cc(C(F)(F)F)c3c(N)c(C(=O)Nc4cc(C)cc(C)c4)sc3n2)cc1 | Mycobacterium tuberculosis | microbial growth | H37RV | – | IC50 | > 100 µM |
| O=c1cc(OCCCOc2ccnc(SCc3ccc(F)cc3)n2)c2cc(F)ccc2o1 | Human coronavirus 229E | cytopathic effect | A549 | 3.13 µM | inhibition | 15.3% |
| Nc1c(C(=O)Nc2ccccc2F)sc2nc(-c3ccccc3)cc(C(F)(F)F)c12 | Mycobacterium tuberculosis | microbial growth | H37RV | – | IC50 | > 100 µM |
| CCOC(=O)C1=C[C@@H](OC(CC)CC)[C@H](NC(C)=O)[C@@H](N)C1 | Human coronavirus 229E | cytopathic effect | A549 | 3.13 µM | inhibition | 21.2% |
| CCCCCCC/C=C/C(=O)N1C(=O)/C(=C(/C)O)C(=O)C1CCC(=O)O (stereo not drawn) | Burkholderia cepacia | microbial growth | ATCC25416 | – | MIC | > 200 µg/mL |
| C[C@H]1COc2c(N3CCN(C)CC3)c(F)cc3c(=O)c(C(=O)O)cn1c23 | Burkholderia cenocepacia | microbial growth | J2315 | – | MIC | 2 µg/mL |
| COCc1cc2[nH]c(=S)n(Cc3cccnc3)c(=O)c2cc1Cl | Mycobacterium tuberculosis | microbial growth | H37RV | – | MIC90 | > 100 µM |
| O=C(c1cc2ccc(-c3ccccc3)nc2s1)N1CCCC1 | Mycobacterium tuberculosis | microbial growth | H37RV | – | IC50 | > 100 µM |
| Oc1cc(Cl)ccc1Oc1ccc(Cl)cc1Cl | Mycobacterium tuberculosis | microbial growth | H37RV | – | MIC | 43 µM |
| Nc1c(C(=O)N2CCOCC2)sc2nc(-c3cccnc3)ccc12 | Mycobacterium tuberculosis | microbial growth | H37RV | – | IC50 | > 100 µM |
| CC(C)C(=O)OCc1cc2[nH]c(=S)n(Cc3cncnc3)c(=O)c2cc1Cl | Mycobacterium tuberculosis | microbial growth | H37RV | – | MIC90 | 1.36 µM (≈ 0.551 µg/mL) |
| CCCCCCC/C=C/C(=O)N1C(=O)/C(=C(\O)c2ccccc2)C(=O)C1CC(C)C (stereo not drawn) | Burkholderia cepacia | microbial growth | ATCC25416 | – | MIC | > 200 µg/mL |
| Nc1c(C(=O)N2CCCC2)sc2nc(-c3ccc4c(c3)OCO4)cc(C(F)(F)F)c12 | Mycobacterium tuberculosis | microbial growth | H37RV | – | IC50 | > 100 µM |

| SMILES | tested on | assay | test system | conditions | measurement | value |
| --- | --- | --- | --- | --- | --- | --- |
| COc1ccc(OS(=O)(=O)NC(=O)CCCCc2ccccc2)cc1 | Bacillus subtilis | microbial growth | ATCC23857 | – | MIC | 200 µg/mL |
| Cc1ccc(-c2cc(C(F)(F)F)c3c(N)c(C(=O)Nc4cccc(C)c4C)sc3n2)cc1 | Mycobacterium tuberculosis | microbial growth | H37RV | – | IC50 | > 100 µM |
| [2H]c1c([2H])c([C@]2([2H])CCCN2C(=O)C(C)(C)Oc2ccc3cn[nH]c3c2)c([2H])c([2H])c1C([2H])([2H])[2H] | MAPK11 (Homo sapiens, UniProt Q15759) | binding, competition with immobilised ligand | – | 1 µM | remaining binding | 83% |
| COc1ccc(-c2cc(C(F)(F)F)c3c(N)c(C(=O)NCc4cccc(C)c4C)sc3n2)cc1 | Mycobacterium tuberculosis | microbial growth | H37RV | – | IC50 | 0.77 µM |
| COCc1ccccc1C(=O)NCCOc1cc(C)cc(C)c1 | PFF0160c (Plasmodium falciparum, UniProt Q08210) | enzyme activity, inhibitor, absorbance | – | – | IC50 | 0.235 µM |
| OC(Cn1cncn1)(Cn1cncn1)c1ccc(F)cc1F | Lodderomyces parapsilosis | microbial growth, broth dilution | ATCC22019 | – | MIC | 2 µg/mL |
| CC(=O)OCc1cc2[nH]c(=S)n(Cc3cccnc3)c(=O)c2cc1Cl | Mycobacterium tuberculosis | microbial growth | H37RV | – | MIC90 | 3.25 µM |
| Cc1ccc(C(=O)Nc2ccc(F)c(F)c2F)cc1S(=O)(=O)N1CCCCC1 | PFF0160c (Plasmodium falciparum, UniProt Q08210, E182D) | enzyme activity, inhibitor, absorbance | – | – | IC50 | > 10 µM |
| O=C(N[C@H](CO)[C@H](O)c1ccc([N+](=O)[O-])cc1)C(Cl)Cl | Burkholderia cenocepacia | microbial growth | J2315 | – | MIC | 16 µg/mL |
| C/C(O)=C1\C(=O)C(CC(C)C)N(C(=O)C=Cc2ccccc2)C1=O (stereo not drawn) | Burkholderia cepacia | microbial growth | ATCC25416 | – | MIC | > 200 µg/mL |
| CC1(C)S[C@@H]2[C@H](NC(=O)[C@H](N)c3ccc(O)cc3)C(=O)N2[C@H]1C(=O)O | Burkholderia cenocepacia | microbial growth | J2315 | – | MIC | > 256 µg/mL |
| CCCCCCC/C=C/C(=O)N1C(=O)/C(=C(/C)O)C(=O)C1CO (stereo not drawn) | Burkholderia cepacia | microbial growth | ATCC25416 | – | MIC | > 200 µg/mL |
| O=c1c2cc(Cl)ccc2[nH]c(=S)n1Cc1cccnc1 | Mycobacterium tuberculosis | microbial growth | H37RV | – | MIC90 | > 100 µM |
| COc1ccc(-c2cc(C(F)(F)F)c3c(N)c(C(=O)Nc4ccccc4)sc3n2)cc1 | Mycobacterium tuberculosis | microbial growth | H37RV | – | IC50 | > 100 µM |
| CC(=O)NCCC(c1cccnc1)n1c(=S)[nH]c2ccc(Cl)cc2c1=O (stereo not drawn) | Mycobacterium tuberculosis | microbial growth | H37RV | – | MIC90 | > 100 µM |
| CCCCCCC/C=C/C(=O)N1C(=O)/C(=C(\O)c2ccncc2)C(=O)C1CC(C)C (stereo not drawn) | Burkholderia cepacia | microbial growth | ATCC25416 | – | MIC | 200 µg/mL |

Repeated from above:
| SMILES | tested on | assay | test system | conditions | measurement | value |
| --- | --- | --- | --- | --- | --- | --- |
| COc1ccc(-c2cc(C(F)(F)F)c3c(N)c(C(=O)Nc4cc(C)cc(C)c4)sc3n2)cc1 | Mycobacterium tuberculosis | microbial growth | H37RV | – | IC50 | > 100 µM |
| COc1c(N2C[C@@H]3CCCN[C@@H]3C2)c(F)cc2c(=O)c(C(=O)O)cn(C3CC3)c12 | Pseudomonas aeruginosa | microbial growth | ATCC27853 | – | MIC | 4 µM |
| CC(C)C(=O)OCc1cc2[nH]c(=S)n(Cc3cncnc3)c(=O)c2cc1Cl | Mycobacterium tuberculosis | microbial growth | H37RV | – | MIC90 | 1.36 µM (≈ 0.551 µg/mL) |
| Nc1c(C(=O)Nc2ccccc2F)sc2nc(-c3ccccc3)cc(C(F)(F)F)c12 | Mycobacterium tuberculosis | microbial growth | H37RV | – | IC50 | > 100 µM |
